Experimental data collected from several papers.
Lines come from different studies, so protocols differ. “And” joins repeats or separate records; there may be more than shown. ± gives the spread as reported.

| Compound | target or system | test | test system | conditions | how to read | endpoint | result |
| --- | --- | --- | --- | --- | --- | --- | --- |
| CC(C)c1ccc(N(C)c2ccc3c(c2)OCC[C@H]3CNc2cnccc2C(=O)O)cc1 | SK-MEL3 | cell growth or viability, ATP luminescence | – | 7 days | – | IC50 | 0.472 µM |
| Cc1ncsc1-c1ccc(C(C)NC(=O)C2CC(O)CN2C(=O)C(NC(=O)CCCCCCCCCCN2CCCC(Nc3ncc(Cl)c(Nc4ccccc4S(=O)(=O)C(C)C)n3)C2)C(C)(C)C)cc1 (stereo not drawn) | 22Rv1 | RNA-seq, refers to: MEAK7 mRNA | – | concentration not given | baseline: DMSO | log2 fold change | -1.03 |
| C=C(NC(=O)c1csc(-c2nc3c(cc2O)-c2nc(cs2)C(=O)NC(C(C)O)C(=O)NC(=C(C)OC)c2nc(cs2)C(=O)NC2c4nc(cs4)C(=O)NC(COC(=O)c4c5c6c(cccc6n4O)COC(=O)C(OC4CC(C)(O)C(N(C)C)C(C)O4)C2OC5)c2nc-3cs2)n1)C(N)=O (stereo not drawn) | Streptococcus pneumoniae | – | -4, immunocompromised mice, lung infection | tid dosing | – | lung bacterial load at ED50 | 5.12 log CFU/g |
| C=CC(=O)Nc1cccc(Cn2ncc3cnc(Nc4cnn(CCOC)c4)nc32)c1 | PIK4CB human | binding, KINOMEscan | – | 100 nM | lower = stronger binding | percent of control | 72% |
| COC1OC(C)C(OC2OC(C)C(OS(=O)(=O)O)C(OS(=O)(=O)O)C2OS(=O)(=O)O)C(OS(=O)(=O)O)C1OS(=O)(=O)O (stereo not drawn) | – | – | human plasma | 128 µg/mL | – | thrombin time | 10.5 ± 0.6 s |
| COC1CN([C@H]2CC[C@H]([C@@]3(C)Oc4c(Cl)cc(C(=O)NCc5c(SC)cc(C)[nH]c5=O)c(C)c4O3)CC2)C1 | – | RNA-seq, refers to: SPATA6 | human, whole blood | dose not given, 24 h | baseline: pretreatment baseline | log2 fold change | 1.28 |
| COC1OC(C)C(OC2OC(C)C(O)C(OC3OC(C)C(OC4OC(C)C(O)C(OS(=O)(=O)O)C4OS(=O)(=O)O)C(OS(=O)(=O)O)C3OS(=O)(=O)O)C2OS(=O)(=O)O)C(OS(=O)(=O)O)C1OS(=O)(=O)O (stereo not drawn) | – | – | human plasma | 128 µg/mL | baseline: control | thrombin time prolongation | 0.9 fold |
| CNS(=O)(=O)Nc1nccc(Cc2c(C)c3ccc(Oc4ncccc4F)cc3oc2=O)c1F | NCI-H446 | cell viability | – | 7 days | – | IC50 | > 1 µM |
| Cc1cccc2c1N(C(=O)n1ccnn1)CC2 | Arabidopsis thaliana | – | kai2 mutant | 10 µM, 72 h | – | germination rate | 70.2% |
| Nc1ncc(-c2cc(-c3cnn(CC(F)(F)F)c3)ncc2F)nc1C(=O)NC1CNCC(F)C1 (stereo not drawn) | PAK1 | KINOMEscan | – | 1 µM | baseline: DMSO control | remaining binding | 85% |
| COC1OC(C)C(O)C(OC2OC(C)C(O)C(OC3OC(C)C(O)C(OC4OC(C)C(O)C(OC5OC(C)C(O)C(OC6OC(C)C(O)C(OC7OC(C)C(O)C(OC8OC(C)C(O)C(OC9OC(C)C(O)C(OC%10OC(C)C(O)C(OS(=O)(=O)O)C%10OS(=O)(=O)O)C9OS(=O)(=O)O)C8OS(=O)(=O)O)C7OS(=O)(=O)O)C6OS(=O)(=O)O)C5OS(=O)(=O)O)C4OS(=O)(=O)O)C3OS(=O)(=O)O)C2OS(=O)(=O)O)C1OS(=O)(=O)O (stereo not drawn) | – | – | human plasma | 128 µg/mL | – | thrombin time | 9.2 s |
| COc1ccccc1-c1ccncc1C(=O)Nc1nnc(OCc2ccc(Cl)cc2)s1 | MDA-MB-436 | – | – | 3 µM | – | colony count | 13 and 8.5 |
| COc1cc2c(NC3CCN(C(C)C)CC3)cc(N3CCOCC3)nc2cc1OCCCN1CCCC1 | – | TMT quantitative proteomics, refers to: NPTXR | 5xFAD mice, hippocampus | dose not given | – | normalised protein abundance | 0.0224 and 0.0836 and 0.102 and 0.0965 and 0.072 and 0.114 and 0.00711 and 0.0709 |
| CN1CCCNC(=O)c2cccc(c2)C(=O)NCCCN(C)CCCNc2cccc3c2C(=O)c2cccc(c2C3=O)NCCC1 | SAS | RNA-Seq, refers to: SOD2 mRNA | – | 1 µM, 6 h | baseline: untreated cells | log2 fold change | -1.71 |
| c1ccc(-c2n[nH]cc2-c2ccnc3ccccc23)nc1 | POM1 (Candida albicans) | kinase binding, MIB/MS competition | Candida albicans lysate | 1 µM | baseline: DMSO | log2 fold change | -0.08 |
| COC1OC(C)C(OC2OC(C)C(OS(=O)(=O)O)C(OC3OC(C)C(OC4OC(C)C(OS(=O)(=O)O)C(OC5OC(C)C(OC6OC(C)C(OS(=O)(=O)O)C(OC7OC(C)C(OC8OC(C)C(OS(=O)(=O)O)C(OC9OC(C)C(OC%10OC(C)C(OS(=O)(=O)O)C(OS(=O)(=O)O)C%10O)C(OS(=O)(=O)O)C9O)C8O)C(OS(=O)(=O)O)C7O)C6O)C(OS(=O)(=O)O)C5O)C4O)C(OS(=O)(=O)O)C3O)C2O)C(OS(=O)(=O)O)C1O (stereo not drawn) | – | – | human plasma | 128 µg/mL | baseline: control | thrombin time prolongation | 1 fold |
| C=CC(=O)N1[C@H](c2ccc3c(c2)OCO3)c2[nH]c3ccccc3c2C[C@@H]1C(=O)N1CCN(C)CC1 | human cyclin E1 N112C-3xFLAG:CDK2 | co-IP with TMT proteomics, refers to: CDK2 | – | concentration not given, P24941 | baseline: wild type DMSO | relative co-enrichment | 102% |
| COC1OC(C)C(OC2OC(C)C(OS(=O)(=O)O)C(OC3OC(C)C(OC4OC(C)C(OS(=O)(=O)O)C(OC5OC(C)C(OC6OC(C)C(OS(=O)(=O)O)C(OS(=O)(=O)O)C6OS(=O)(=O)O)C(OS(=O)(=O)O)C5OS(=O)(=O)O)C4OS(=O)(=O)O)C(OS(=O)(=O)O)C3OS(=O)(=O)O)C2OS(=O)(=O)O)C(OS(=O)(=O)O)C1OS(=O)(=O)O (stereo not drawn) | – | – | human plasma | 128 µg/mL | baseline: control | thrombin time prolongation | 1 fold |
| COc1cc(O)ccc1CCC(c1ccc(O)cc1)c1cc2c(c(C)c1O)OC(c1ccc(O)cc1)CC2 (mixture of isomers) | – | refers to: 17-HDHA | human whole blood | 0.3 µM, added: Escherichia coli | – | amount | 698 ± 217 pg/mL blood |
| CCN(CC)CC(=O)Nc1cccc(-n2cc(-c3ccc4ccc(-c5cn(-c6cccc(NC(=O)CN(CC)CC)c6)nn5)cc4c3)nn2)c1 | RCC4 | PCR angiogenesis array, refers to: TEK | – | 5 x IC50, 6 h, normoxia | baseline: untreated | fold regulation | -1.53 fold |
| COC1OC(C)C(O)C(OC2OC(C)C(O)C(OC3OC(C)C(O)C(OC4OC(C)C(O)C(OC5OC(C)C(O)C(OC6OC(C)C(O)C(OC7OC(C)C(O)C(OS(=O)(=O)O)C7OS(=O)(=O)O)C6OS(=O)(=O)O)C5OS(=O)(=O)O)C4OS(=O)(=O)O)C3OS(=O)(=O)O)C2OS(=O)(=O)O)C1OS(=O)(=O)O (stereo not drawn) | – | – | human plasma | 128 µg/mL | baseline: control | thrombin time prolongation | 1 fold |
